# Assay results gathered from unrelated publications.
# Lines come from different studies, so protocols differ.
# Organism: Escherichia coli
SMILES,assay,system,conditions,MIC
CC(C)C[C@@H](NC(=O)[C@H](NC(=O)[C@@H](CCCCN)NC(=O)[C@@H](CCCCN)NC(=O)[C@@H](CC(C)C)NC(=O)[C@@H](Cc1c[nH]c2ccccc12)NC(=O)[C@@H](CCCCN)NC(=O)[C@@H](Cc1c[nH]c2ccccc12)NC(=O)[C@@H](CC(C)C)NC(=O)[C@@H](CCCCN)NC(=O)[C@@H](CCCCN)NC(=O)[C@H](N)C(C)C)C(C)C)C(N)=O,,,"24 h, 37 °C, Mueller-Hinton broth, KCl 4.5 mM",16 µM
CC[C@H](C)[C@H](NC(=O)[C@@H](CCCNC(=N)N)NC(=O)[C@H](CCCNC(=N)N)NC(=O)[C@H](CCC(=O)O)NC(=O)[C@H](Cc1c[nH]c2ccccc12)NC(=O)[C@H](CCCNC(=N)N)NC(=O)[C@@H]1CCCN1C(=O)[C@H](CCCNC(=N)N)NC(=O)[C@@H]1CCCN1C(=O)[C@H](CC(C)C)NC(=O)[C@H](Cc1ccc(O)cc1)NC(=O)[C@@H]1CCCN1C(=O)[C@@H]1CCCN1C(=O)[C@H](CCCCN)NC(=O)[C@H](CC(=O)O)NC(=O)[C@@H](N)C(C)C)C(=O)N[C@@H](Cc1ccc(O)cc1)C(=O)N[C@@H](CC(N)=O)C(=O)N[C@H](CCCNC(=N)N)C(N)=O,broth microdilution,BW25113,"18 h, 37 °C, 25% MHB2",16 µg/mL
CC(C)C[C@@H]1NC(=O)[C@H](CCCCN)NC(=O)CNC(=O)[C@H]2CCCN2C(=O)[C@H](CCCCN)NC(=O)[C@H](CC(C)C)NC(=O)[C@H](CCCCN)NC(=O)C2CCC=CCCCC(NC(=O)[C@H](CCCCN)NC1=O)C(=O)N[C@@H](CCCCN)C(=O)NC(C(N)=O)CCCC=CCCC(N)C(=O)N[C@@H](CCCCN)C(=O)N2 (stereo partly shown),broth microdilution,"ATCC 25922, Mueller-Hinton broth","18 h, 37 °C",64 µM
CC(C)C[C@H](NC(=O)[C@H](CCCNC(=N)N)NC(=O)CNC(=O)CNC(=O)[C@@H](N)CCCNC(=N)N)C(=O)N[C@H]1CSSC[C@@H](C(=O)N[C@H](C(=O)NCC(=O)N[C@@H](CCCNC(=N)N)C(N)=O)C(C)C)NC(=O)[C@H](C(C)C)NC(=O)[C@@H]2CSSC[C@H](NC(=O)[C@H](Cc3ccc(O)cc3)NC1=O)C(=O)N[C@@H](CCCNC(=N)N)C(=O)N[C@@H](CCCNC(=N)N)C(=O)N[C@@H](CCCNC(=N)N)C(=O)N[C@@H](Cc1ccccc1)C(=O)N2,broth dilution,K12 BW25113,"18 h, 37 °C",1.8 µM
CC[C@H](C)[C@H](NC(=O)CNC(=O)[C@H](CCC(N)=O)NC(=O)[C@@H](NC(=O)[C@H](C)NC(=O)[C@H](CCC(N)=O)NC(=O)[C@H](C)NC(=O)[C@@H](NC(=O)[C@H](C)NC(=O)[C@H](CCCNC(=N)N)NC(=O)[C@H](Cc1ccccc1)NC(=O)[C@H](C)NC(=O)[C@H](CC(N)=O)NC(=O)[C@H](CCCCN)NC(=O)CNC(=O)[C@H](C)NC(=O)[C@H](CCCCN)NC(=O)[C@H](CCC(=O)O)NC(=O)[C@@H](NC(=O)[C@H](CCCCN)NC(=O)[C@H](CCCCN)NC(=O)CN)[C@@H](C)CC)C(C)C)C(C)C)C(=O)NCC(=O)N[C@@H](Cc1ccccc1)C(=O)N[C@@H](C)C(=O)N[C@@H](CCCNC(=N)N)C(=O)N[C@@H](C)C(=O)N[C@@H](CC(C)C)C(=O)NCC(=O)N[C@H](C(=O)N[C@@H](C)C(=O)N[C@H](C(=O)N[C@@H](CC(=O)O)C(=O)O)C(C)C)[C@@H](C)CC,broth microdilution,"K88, Mueller-Hinton broth",37 °C,17.6 µg/mL
CC[C@H](C)[C@H](NC(=O)[C@@H](CCCNC(=N)N)NC(=O)[C@H](CCCNC(=N)N)NC(=O)[C@@H]1CCCN1C(=O)[C@@H]1CCCN1C(=O)[C@H](CCCNC(=N)N)NC(=O)[C@@H]1CCCN1C(=O)[C@H](CCCNC(=N)N)NC(=O)[C@@H]1CCCN1C(=O)[C@H](CC(C)C)NC(=O)[C@H](Cc1ccc(O)cc1)NC(=O)[C@H](CCCNC(=N)N)NC(=O)[C@@H]1CCCN1C(=O)[C@H](CCCCN)NC(=O)[C@H](CC(=O)O)NC(=O)[C@@H](N)C(C)C)C(=O)N[C@@H](Cc1ccc(O)cc1)C(=O)N[C@@H](CC(N)=O)C(=O)N[C@H](CCCNC(=N)N)C(N)=O,broth microdilution,MC4100,"18 h, 37 °C, 25% MHB2",8 µg/mL
CC1(C)[C@H](NC(=O)/C(=N\OC2(C(=O)O)CCCCC2)c2csc(N)n2)C(=O)N1OS(=O)(=O)O,agar dilution,"08-85, mcr-1",,2 µg/mL
CC(C)C[C@@H]1NC(=O)[C@H](CCCNC(=N)N)NC(=O)[C@H](CCCNC(=N)N)NC(=O)[C@@H](NC(=O)[C@@H](N)CCC(=O)O)CSSC[C@@H](C(=O)N[C@@H](CCCNC(=N)N)C(=O)NCC(=O)N[C@@H](CCCNC(=N)N)C(N)=O)NC(=O)[C@H](Cc2ccc(O)cc2)NC(=O)[C@H]([C@@H](C)O)NC(=O)[C@H](C(C)C)NC(=O)[C@H](Cc2c[nH]c3ccccc23)NC(=O)[C@H](CCCNC(=N)N)NC(=O)CNC(=O)[C@H](CCCCN)NC(=O)[C@H](Cc2ccc(O)cc2)NC(=O)[C@H](Cc2c[nH]c3ccccc23)NC1=O,"bacterial growth, broth dilution, OD600","DH5α, LB medium","16 h, 37 °C",> 100 µM
CC(C)C[C@@H](NC(=O)[C@H](NC(=O)[C@@H](CCCCN)NC(=O)[C@@H](CCCCN)NC(=O)[C@@H](CC(C)C)NC(=O)[C@@H](Cc1c[nH]c2ccccc12)NC(=O)[C@@H](CCCCN)NC(=O)[C@@H](CC(C)C)NC(=O)[C@@H](CC(C)C)NC(=O)[C@@H](CCCCN)NC(=O)[C@@H](CCCCN)NC(=O)[C@H](N)C(C)C)C(C)C)C(N)=O,,,"24 h, 37 °C, Mueller-Hinton broth, KCl 4.5 mM",8 µM
CCCCCCCC(=O)N[C@@H](CCN)C(=O)N[C@H](C(=O)N[C@@H](CCN)C(=O)N[C@H]1CCNC(=O)[C@H]([C@@H](C)O)NC(=O)[C@H](CCN)NC(=O)[C@H](CCN)NC(=O)[C@H](CC(C)C)NC(=O)[C@@H](Cc2ccc(Cl)cc2)NC(=O)[C@H](CCN)NC1=O)[C@@H](C)O,broth microdilution,"ATCC 25922, colistin-susceptible",,< 0.125 µg/mL
CC[C@H](C)[C@H](NC(=O)[C@@H](CCCNC(=N)N)NC(=O)[C@H](CCCNC(=N)N)NC(=O)[C@@H](NC(=O)[C@H](Cc1c[nH]c2ccccc12)NC(=O)[C@H](CCCNC(=N)N)NC(=O)[C@@H]1CCCN1C(=O)[C@H](CCCNC(=N)N)NC(=O)[C@@H]1CCCN1C(=O)[C@H](CC(C)C)NC(=O)[C@H](Cc1ccc(O)cc1)NC(=O)[C@@H]1CCCN1C(=O)[C@@H]1CCCN1C(=O)[C@H](CCCCN)NC(=O)[C@H](CC(=O)O)NC(=O)[C@@H](N)C(C)C)[C@@H](C)O)C(=O)N[C@@H](Cc1ccc(O)cc1)C(=O)N[C@@H](CC(N)=O)C(=O)N[C@H](CCCNC(=N)N)C(N)=O,broth microdilution,BW25113,"18 h, 37 °C, 25% MHB2",8 µg/mL
COc1c(NC(=O)c2ccc(NC(=O)c3ccc(NC(=O)[C@H](Cc4c[nH]nn4)NC(=O)c4ccc(NC(=O)/C(C)=C/c5ccc(O)cc5)cc4)cc3)c(OC)c2O)ccc(C(=O)O)c1O,"microbial growth, broth dilution",,,0.063 µg/mL
CC[C@H](C)[C@H](NC(=O)[C@@H](CCCNC(=N)N)NC(=O)[C@H](CCCNC(=N)N)NC(=O)[C@H](CC(=O)O)NC(=O)[C@H](Cc1c[nH]c2ccccc12)NC(=O)[C@H](CCCNC(=N)N)NC(=O)[C@@H]1CCCN1C(=O)[C@H](CCCNC(=N)N)NC(=O)[C@@H]1CCCN1C(=O)[C@H](CC(C)C)NC(=O)[C@H](Cc1ccc(O)cc1)NC(=O)[C@@H]1CCCN1C(=O)[C@@H]1CCCN1C(=O)[C@H](CCCCN)NC(=O)[C@H](CC(=O)O)NC(=O)[C@@H](N)C(C)C)C(=O)N[C@@H](Cc1ccc(O)cc1)C(=O)N[C@@H](CC(N)=O)C(=O)N[C@H](CCCNC(=N)N)C(N)=O,broth microdilution,MC4100,"18 h, 37 °C, 25% MHB2",16 µg/mL
C[C@H](NC(=O)CNC(=O)[C@@H]1CCCN1C(=O)[C@H](CO)NC(=O)CNC(=O)CN)C(=O)N[C@@H](CCCCN)C(=O)N[C@@H](CCCCN)C(=O)N[C@@H](CC(N)=O)C(=O)N[C@H](C(=O)N[C@@H](CCCCN)C(=O)N[C@@H](CO)C(=O)N[C@@H](C)C(=O)N[C@@H](CS)C(=O)NCC(=O)N[C@@H](CCCCN)C(=O)N[C@@H](C)C(=O)N[C@@H](CS)C(=O)N[C@@H](C)C(=O)N[C@@H](CS)C(=O)N[C@@H](Cc1c[nH]cn1)C(=O)O)[C@@H](C)O,broth microdilution,"K88, Mueller-Hinton broth",37 °C,141 µg/mL
CC[C@H](C)[C@H](NC(=O)[C@H](Cc1c[nH]c2ccccc12)NC(=O)c1ccccc1)C(=O)N[C@@H](CCCNC(=N)N)C(=O)N[C@@H](Cc1ccc(O)cc1)C(=O)N[C@@H](CCCCN)C(=O)N[C@@H](Cc1c[nH]c2ccccc12)C(=O)N[C@H](CCCNC(=N)N)C(=O)N[C@@H](CCCNC(=N)N)C(=O)N[C@@H](CCCCN)C(=O)N[C@@H](CCCCN)C(=O)N[C@H](C(=O)N[C@@H](CCCNC(=N)N)C(=O)N[C@@H](Cc1ccc(O)cc1)C(=O)N[C@@H](Cc1c[nH]c2ccccc12)C(=O)N[C@H](C(=O)NCC(=O)N1CCC[C@H]1C(N)=O)[C@@H](C)O)C(C)C,,DH5α,"16 h, 37 °C",25 µM
COc1c(NC(=O)c2ccc(NC(=O)c3ccc(NC(=O)[C@H](CC(N)=O)NC(=O)c4ccc(NC(=O)[C@@H](N)Cc5ccccc5)cc4)cc3)c(OC)c2O)ccc(C(=O)O)c1O,,monooxygenase clone,"16 h, 37 °C",8 µg/mL
N=C(N)NCCC[C@@H]1NC(=O)[C@H](CCCNC(=N)N)NC(=O)[C@@H](CCCNC(=N)N)NC(=O)[C@@H](CCCNC(=N)N)NC(=O)[C@@H](C(c2ccccc2)c2ccccc2)NC(=O)[C@@H](Cc2c[nH]c3ccccc23)NC(=O)[C@@H](C(c2ccccc2)c2ccccc2)NC1=O,,"ATCC BAA-2452, NDM-1 CRE",,8 µg/mL
CC[C@H](C)[C@H](NC(=O)[C@@H](CCCNC(=N)N)NC(=O)[C@H](CCCNC(=N)N)NC(=O)[C@@H]1CCCN1C(=O)[C@@H]1CCCN1C(=O)[C@H](CCCNC(=N)N)NC(=O)[C@@H]1CCCN1C(=O)[C@H](CCCNC(=N)N)NC(=O)[C@@H]1CCCN1C(=O)[C@H](CC(C)C)NC(=O)[C@H](Cc1ccc(O)cc1)NC(=O)[C@H](Cc1ccccc1)NC(=O)[C@@H]1CCCN1C(=O)[C@H](CCCCN)NC(=O)[C@H](CC(=O)O)NC(=O)[C@@H](N)C(C)C)C(=O)N[C@@H](Cc1ccc(O)cc1)C(=O)N[C@@H](CC(N)=O)C(=O)N[C@H](CCCNC(=N)N)C(N)=O,broth microdilution,BW25113,"18 h, 37 °C, 25% MHB2",16 µg/mL
CC(C)C[C@H](NC(=O)[C@@H](NC(=O)[C@H](CCCNC(=N)N)NC(=O)[C@H](CCC(N)=O)NC(=O)[C@H](Cc1ccccc1)NC(=O)[C@H](Cc1ccc(O)cc1)NC(=O)[C@H](CC(N)=O)NC(=O)[C@H](Cc1c[nH]c2ccccc12)NC(=O)[C@@H](NC(=O)[C@H](CCCNC(=N)N)NC(=O)[C@H](CCCCN)NC(=O)[C@@H](N)Cc1ccccc1)C(C)C)C(C)C)C(=O)N[C@H](C(=O)N[C@@H](CCCCN)C(=O)N[C@@H](CCCCN)C(=O)N[C@@H](Cc1ccc(O)cc1)C(N)=O)C(C)C,broth dilution,"ATCC 25922, Mueller-Hinton broth","24 h, 37 °C",50 µM

# For quick reference, copied from above:
SMILES,assay,system,conditions,MIC
CC[C@H](C)[C@H](NC(=O)[C@@H](CCCNC(=N)N)NC(=O)[C@H](CCCNC(=N)N)NC(=O)[C@H](CC(=O)O)NC(=O)[C@H](Cc1c[nH]c2ccccc12)NC(=O)[C@H](CCCNC(=N)N)NC(=O)[C@@H]1CCCN1C(=O)[C@H](CCCNC(=N)N)NC(=O)[C@@H]1CCCN1C(=O)[C@H](CC(C)C)NC(=O)[C@H](Cc1ccc(O)cc1)NC(=O)[C@@H]1CCCN1C(=O)[C@@H]1CCCN1C(=O)[C@H](CCCCN)NC(=O)[C@H](CC(=O)O)NC(=O)[C@@H](N)C(C)C)C(=O)N[C@@H](Cc1ccc(O)cc1)C(=O)N[C@@H](CC(N)=O)C(=O)N[C@H](CCCNC(=N)N)C(N)=O,broth microdilution,MC4100,"18 h, 37 °C, 25% MHB2",16 µg/mL
CC(C)C[C@@H](NC(=O)[C@H](NC(=O)[C@@H](CCCCN)NC(=O)[C@@H](CCCCN)NC(=O)[C@@H](CC(C)C)NC(=O)[C@@H](Cc1c[nH]c2ccccc12)NC(=O)[C@@H](CCCCN)NC(=O)[C@@H](Cc1c[nH]c2ccccc12)NC(=O)[C@@H](CC(C)C)NC(=O)[C@@H](CCCCN)NC(=O)[C@@H](CCCCN)NC(=O)[C@H](N)C(C)C)C(C)C)C(N)=O,,,"24 h, 37 °C, Mueller-Hinton broth, KCl 4.5 mM",16 µM
CC1(C)[C@H](NC(=O)/C(=N\OC2(C(=O)O)CCCCC2)c2csc(N)n2)C(=O)N1OS(=O)(=O)O,agar dilution,"08-85, mcr-1",,2 µg/mL
